Published values gathered from unrelated publications.
“And” joins repeats or separate records; there may be more than shown. ± marks the error that the study gave.
GBA2: Beta-glucosidase (GBA2, Homo sapiens, UniProt Q9HCG7)
UniProt Q9HCG7, sequence (whole entry, looked up): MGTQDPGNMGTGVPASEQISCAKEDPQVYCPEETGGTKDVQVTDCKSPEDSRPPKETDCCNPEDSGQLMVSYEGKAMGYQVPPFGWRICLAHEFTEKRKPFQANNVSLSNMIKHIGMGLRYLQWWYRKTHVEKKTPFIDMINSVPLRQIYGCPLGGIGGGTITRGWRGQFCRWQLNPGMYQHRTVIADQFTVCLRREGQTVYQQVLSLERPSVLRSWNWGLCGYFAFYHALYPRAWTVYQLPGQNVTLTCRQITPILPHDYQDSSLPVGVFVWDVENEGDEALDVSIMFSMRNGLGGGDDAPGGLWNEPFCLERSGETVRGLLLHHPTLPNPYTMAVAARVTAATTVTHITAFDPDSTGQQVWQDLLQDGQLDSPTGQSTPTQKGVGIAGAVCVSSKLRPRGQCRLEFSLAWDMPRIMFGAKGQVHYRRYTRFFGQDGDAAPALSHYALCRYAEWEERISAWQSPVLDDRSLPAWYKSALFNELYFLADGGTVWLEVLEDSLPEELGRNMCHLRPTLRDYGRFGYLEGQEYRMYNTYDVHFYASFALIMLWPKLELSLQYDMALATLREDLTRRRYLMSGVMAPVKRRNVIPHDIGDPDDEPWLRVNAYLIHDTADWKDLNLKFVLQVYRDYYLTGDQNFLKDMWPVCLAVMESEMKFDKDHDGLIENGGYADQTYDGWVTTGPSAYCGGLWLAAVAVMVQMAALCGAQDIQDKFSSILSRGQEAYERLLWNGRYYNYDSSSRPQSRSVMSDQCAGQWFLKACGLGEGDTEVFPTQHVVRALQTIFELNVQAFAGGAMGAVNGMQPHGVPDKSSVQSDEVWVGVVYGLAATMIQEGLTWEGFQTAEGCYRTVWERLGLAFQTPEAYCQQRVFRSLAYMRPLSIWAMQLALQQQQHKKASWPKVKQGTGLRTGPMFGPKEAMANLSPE
CASP3: Caspase-3 (CASP3, Homo sapiens, UniProt P42574)
ESR1: Estrogen receptor (ESR1, Homo sapiens, UniProt P03372)
UniProt P03372, sequence (whole entry, looked up): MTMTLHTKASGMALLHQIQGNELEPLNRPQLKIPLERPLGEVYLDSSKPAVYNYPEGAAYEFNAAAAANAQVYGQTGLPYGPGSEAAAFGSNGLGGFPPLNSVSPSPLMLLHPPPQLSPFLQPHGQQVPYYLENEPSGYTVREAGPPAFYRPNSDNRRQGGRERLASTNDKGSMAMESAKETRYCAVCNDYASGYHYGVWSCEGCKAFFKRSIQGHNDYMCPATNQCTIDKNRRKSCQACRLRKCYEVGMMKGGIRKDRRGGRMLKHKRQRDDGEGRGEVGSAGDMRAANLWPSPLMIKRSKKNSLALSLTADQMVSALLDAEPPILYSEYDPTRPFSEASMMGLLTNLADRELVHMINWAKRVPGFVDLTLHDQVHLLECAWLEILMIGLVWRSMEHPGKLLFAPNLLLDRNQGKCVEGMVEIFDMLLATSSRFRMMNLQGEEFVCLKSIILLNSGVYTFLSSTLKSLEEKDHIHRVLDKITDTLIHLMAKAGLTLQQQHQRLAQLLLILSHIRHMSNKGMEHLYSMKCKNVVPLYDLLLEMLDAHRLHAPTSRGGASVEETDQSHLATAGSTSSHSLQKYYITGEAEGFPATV
T1: hairpin RNA, designed, closed by two pairs; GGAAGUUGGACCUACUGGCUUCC
UniProt Q92633, sequence (whole entry, looked up): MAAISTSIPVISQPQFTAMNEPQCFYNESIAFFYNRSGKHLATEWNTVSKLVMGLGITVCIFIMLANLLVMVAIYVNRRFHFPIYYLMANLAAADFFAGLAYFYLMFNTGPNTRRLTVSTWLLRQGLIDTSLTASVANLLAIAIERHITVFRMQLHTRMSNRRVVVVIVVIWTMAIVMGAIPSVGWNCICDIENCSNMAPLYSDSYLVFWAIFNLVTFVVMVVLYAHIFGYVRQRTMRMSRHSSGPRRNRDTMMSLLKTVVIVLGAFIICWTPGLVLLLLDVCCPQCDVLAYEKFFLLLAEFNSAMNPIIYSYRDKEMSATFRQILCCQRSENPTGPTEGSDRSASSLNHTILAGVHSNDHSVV
UniProt O75417, sequence (whole entry, looked up): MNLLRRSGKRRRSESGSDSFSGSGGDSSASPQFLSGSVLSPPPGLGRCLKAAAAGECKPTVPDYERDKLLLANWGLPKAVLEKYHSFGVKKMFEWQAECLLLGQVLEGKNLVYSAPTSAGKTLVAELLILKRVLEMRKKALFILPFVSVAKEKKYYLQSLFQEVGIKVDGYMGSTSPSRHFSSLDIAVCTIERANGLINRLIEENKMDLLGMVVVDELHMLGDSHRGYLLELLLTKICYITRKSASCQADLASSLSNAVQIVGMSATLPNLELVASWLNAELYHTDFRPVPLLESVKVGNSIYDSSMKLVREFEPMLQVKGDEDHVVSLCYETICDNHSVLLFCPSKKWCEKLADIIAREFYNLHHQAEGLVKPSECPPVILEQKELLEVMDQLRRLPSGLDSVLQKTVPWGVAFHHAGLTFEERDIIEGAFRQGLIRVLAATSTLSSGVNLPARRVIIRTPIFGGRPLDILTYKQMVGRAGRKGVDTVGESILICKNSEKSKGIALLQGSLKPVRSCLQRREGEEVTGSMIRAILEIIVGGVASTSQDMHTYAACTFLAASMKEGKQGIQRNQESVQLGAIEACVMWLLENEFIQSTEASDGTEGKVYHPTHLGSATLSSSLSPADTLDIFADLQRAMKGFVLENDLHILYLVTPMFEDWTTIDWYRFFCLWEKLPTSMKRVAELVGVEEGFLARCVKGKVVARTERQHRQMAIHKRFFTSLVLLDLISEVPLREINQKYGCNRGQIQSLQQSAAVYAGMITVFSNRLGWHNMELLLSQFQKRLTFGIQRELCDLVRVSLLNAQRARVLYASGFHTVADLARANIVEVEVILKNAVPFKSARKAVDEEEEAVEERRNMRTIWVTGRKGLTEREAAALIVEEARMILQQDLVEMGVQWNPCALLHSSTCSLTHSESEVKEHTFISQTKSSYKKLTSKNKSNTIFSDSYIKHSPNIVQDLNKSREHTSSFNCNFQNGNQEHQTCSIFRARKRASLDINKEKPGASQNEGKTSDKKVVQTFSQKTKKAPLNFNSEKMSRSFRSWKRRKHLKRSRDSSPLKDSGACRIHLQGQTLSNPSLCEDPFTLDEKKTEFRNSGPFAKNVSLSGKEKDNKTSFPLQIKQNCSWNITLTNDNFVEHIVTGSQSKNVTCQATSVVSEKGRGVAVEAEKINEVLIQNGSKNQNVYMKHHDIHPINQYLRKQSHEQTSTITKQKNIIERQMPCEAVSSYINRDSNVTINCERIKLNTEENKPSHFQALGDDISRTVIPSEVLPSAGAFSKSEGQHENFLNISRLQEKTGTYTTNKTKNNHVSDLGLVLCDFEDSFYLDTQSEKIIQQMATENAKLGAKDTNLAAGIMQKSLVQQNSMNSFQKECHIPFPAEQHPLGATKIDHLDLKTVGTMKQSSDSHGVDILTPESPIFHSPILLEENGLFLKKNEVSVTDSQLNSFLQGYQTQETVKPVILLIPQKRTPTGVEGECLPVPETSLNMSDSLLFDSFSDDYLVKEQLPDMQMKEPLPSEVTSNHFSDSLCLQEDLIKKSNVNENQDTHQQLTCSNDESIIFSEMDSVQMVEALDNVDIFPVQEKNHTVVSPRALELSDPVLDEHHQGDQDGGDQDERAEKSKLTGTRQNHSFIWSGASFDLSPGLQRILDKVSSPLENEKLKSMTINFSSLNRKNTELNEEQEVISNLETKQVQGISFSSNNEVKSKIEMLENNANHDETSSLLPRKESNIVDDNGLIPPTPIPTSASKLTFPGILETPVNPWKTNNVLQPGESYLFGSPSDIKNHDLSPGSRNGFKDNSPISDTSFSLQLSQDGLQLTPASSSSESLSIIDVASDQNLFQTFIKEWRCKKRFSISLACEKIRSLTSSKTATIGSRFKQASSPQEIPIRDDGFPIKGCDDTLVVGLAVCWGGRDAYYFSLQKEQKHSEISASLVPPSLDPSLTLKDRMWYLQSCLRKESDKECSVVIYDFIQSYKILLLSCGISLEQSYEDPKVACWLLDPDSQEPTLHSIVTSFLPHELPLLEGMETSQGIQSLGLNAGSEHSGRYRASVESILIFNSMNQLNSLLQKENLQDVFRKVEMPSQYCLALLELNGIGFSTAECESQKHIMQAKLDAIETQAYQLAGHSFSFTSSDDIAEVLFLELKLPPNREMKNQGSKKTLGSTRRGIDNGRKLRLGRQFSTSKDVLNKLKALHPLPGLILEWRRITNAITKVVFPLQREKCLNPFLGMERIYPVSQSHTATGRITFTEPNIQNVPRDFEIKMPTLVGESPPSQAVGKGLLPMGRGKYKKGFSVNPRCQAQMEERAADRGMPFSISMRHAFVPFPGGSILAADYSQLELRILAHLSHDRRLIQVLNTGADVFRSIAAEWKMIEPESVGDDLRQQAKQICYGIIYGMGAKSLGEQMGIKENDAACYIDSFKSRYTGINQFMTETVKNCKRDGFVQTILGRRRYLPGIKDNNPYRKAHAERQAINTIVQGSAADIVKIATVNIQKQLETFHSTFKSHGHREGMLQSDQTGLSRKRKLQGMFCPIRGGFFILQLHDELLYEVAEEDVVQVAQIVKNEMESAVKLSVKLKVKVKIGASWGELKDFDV
UniProt Q96SB4, sequence (whole entry, looked up): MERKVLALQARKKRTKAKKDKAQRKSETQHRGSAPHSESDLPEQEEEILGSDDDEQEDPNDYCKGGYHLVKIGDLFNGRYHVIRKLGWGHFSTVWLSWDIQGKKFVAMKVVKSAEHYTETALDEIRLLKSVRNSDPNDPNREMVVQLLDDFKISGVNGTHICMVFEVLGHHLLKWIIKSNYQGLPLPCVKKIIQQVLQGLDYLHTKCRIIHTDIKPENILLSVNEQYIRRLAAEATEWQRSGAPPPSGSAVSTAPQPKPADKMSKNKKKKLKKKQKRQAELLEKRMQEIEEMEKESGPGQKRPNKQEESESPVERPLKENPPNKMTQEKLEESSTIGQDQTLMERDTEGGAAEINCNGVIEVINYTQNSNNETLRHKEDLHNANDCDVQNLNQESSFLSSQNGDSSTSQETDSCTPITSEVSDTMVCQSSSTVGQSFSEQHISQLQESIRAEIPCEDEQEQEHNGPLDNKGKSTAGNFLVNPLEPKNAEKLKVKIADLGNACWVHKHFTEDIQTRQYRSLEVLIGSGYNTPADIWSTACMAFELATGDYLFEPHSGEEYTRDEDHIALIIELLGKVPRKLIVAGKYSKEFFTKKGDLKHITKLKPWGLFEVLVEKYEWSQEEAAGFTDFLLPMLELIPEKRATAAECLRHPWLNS

Compound | target or system | test | test system | conditions | scale | endpoint | result
O=C1c2sc(-c3ccc(N4CCC(CO)CC4)nc3F)nc2CCN1c1cccnc1 | Amyloid-beta precursor protein, amyloid-beta insoluble aggregates (APP, Homo sapiens, UniProt P05067) | radioligand filter binding | AD brain insoluble fraction | 50 nM | higher = more binding | specific binding | 474 a.u. and 352 a.u.
N[C@H]1CC[C@H](Nc2nccc(-c3cccnc3Oc3ccc(NC(=O)NC4CC4)c4ccccc34)n2)CC1 | DYRK1A and DYRK1B (human) | kinobead competition pulldown | HEK293/HCT116 lysate mixture | 10 µM, 1 h, 4 °C | lower = stronger competition | log2 LFQ intensity | 20.5 and 20.7 and 20.6 and 21.4
OC[C@@H]1[C@@H](O)[C@H](O)[C@@H](O)CN1CCCCCOCc1ccc(-c2ccc(F)cc2)cc1 | GBA2 | inhibitor, 4MU-β-D-glucopyranoside | HEK293T homogenates overexpressing GBA2 | – | relative to: GCS IC50 over GBA2 IC50 | selectivity ratio | 25
O=C(NCC(F)(F)F)c1ccc(-c2cc(NCCO)ncn2)cc1 | Beta-1,4-galactosyltransferase 1 (B4GALT1, Homo sapiens, UniProt P15291) | enzyme activity, inhibitor, UDP-Glo | – | 10 µM | lower means stronger inhibition | luminescence | 69100 a.u.
CCCC[C@H](NC(=O)COCCOCCNC(=O)CN1CCN(CC(=O)O)CCN(CC(=O)O)CC1)C(=O)N[C@H]1CC(=O)NCCCC[C@@H](C(N)=O)NC(=O)[C@H](Cc2c[nH]c3ccccc23)NC(=O)[C@H](CCCNC(=N)N)NC(=O)[C@@H](Cc2ccccc2)NC(=O)[C@H](Cc2c[nH]cn2)NC1=O [technetium-99m labelled] | – | – | C57 mouse, blood | intravenous, 0.037 MBq, 4 h | – | tissue uptake | 0.05 ± 0.04 %ID/g
COC(=O)c1cc2cc3c(cc2oc1=O)N(CC(=O)NC(Cc1ccc(C)cc1)C(=O)NCC=CS(=O)(=O)c1ccccc1)CCC3 (stereo not shown) | Cathepsin B (CTSB, Homo sapiens, UniProt P07858) | inhibitor | – | with: Z-Arg-Arg-pNA | – | kinact/Ki | 391 M⁻¹ s⁻¹
N=C(N)c1ccc(-c2ccc(-c3cccc(C(=N)N)c3)o2)nc1 | Protein arginine N-methyltransferase 5 (PRMT5, Homo sapiens, UniProt O14744) | enzyme activity, inhibitor, radiometric | – | 20 µM | – | remaining activity | 108%
CCOC(=O)C1CC(C)C2C=CC3CCN(C(=O)C4CCC5C=CC6(CCCN6C(=O)C(Cc6ccccc6Cl)NC(C)=O)C(=O)N54)C3C(=O)N12 (stereo not shown) | Vasodilator-stimulated phosphoprotein, EVH1 domain (VASP, Homo sapiens, UniProt P50552) | isothermal titration calorimetry | – | – | – | ligand efficiency | -660 J/(mol·heavy atom)
Cc1cc(=O)oc2cc(NC(=O)CCCCCCC(=O)NO)ccc12 | Histone deacetylase 8 (HDAC8, Homo sapiens, UniProt Q9BY41) | ITC | Tris-HCl buffer | concentration not given, 298 K | – | binding stoichiometry | 0.8
CNC(=O)C1CCCN(C(=O)C2CC3CCC2N3C(=O)[C@@H]2C[C@@H](O)CN2C(=O)NCc2cccc(Cl)c2F)C1 (mixture of isomers) | Cytochrome P450 2C19 (CYP2C19, Homo sapiens, UniProt P33261) | enzyme activity, inhibitor, time-dependent inhibition | – | 5.56 µM, preincubated with NADPH | relative to: negative control | remaining activity | 113%
Cc1ccc2c(Cn3ccnc3)cc(=O)oc2c1C | Alpha-1B adrenergic receptor (ADRA1B, Homo sapiens, UniProt P35368) | intracellular Ca2+ mobilization, agonist | COS-7 | 500 µM | relative to: 3 µM ionomycin | agonist activity | 4.03 ± 2.07%
CNS(=O)(=O)Nc1nccc(Cc2c(C)c3ccc(Oc4ncccc4F)cc3oc2=O)c1F | T84 | cell viability | – | 7 days | – | IC50 | > 1000 nM
N=C(N)NCCS(=O)(=O)O | Sodium- and chloride-dependent taurine transporter (SLC6A6, Homo sapiens, UniProt P31641, Y138A) | binding, microscale thermophoresis | – | 1 mM, room temperature, with: 50 nM labelled protein | higher = more binding | normalised MST signal | 0.014
CCN(CC)C(CO)c1cccc2c(C)c(C)oc12 (stereo not shown) | Lysophosphatidic acid receptor 1 (LPAR1, Homo sapiens, UniProt Q92633) | G-protein dissociation, agonist, NanoBiT | HEK-293T | 10 nM, wild-type receptor | relative to: baseline luminescence | fold change | 0.604 and 0.619 and 0.556 and 0.725 and 0.628 and 0.936
OC[C@@H]1[C@@H](O)[C@H](O)[C@@H](O)CN1CCCCCOCc1ccc(-c2ccccc2)cc1C(F)(F)F | GBA2 | inhibitor, 4MU-β-D-glucopyranoside | HEK293T homogenates overexpressing GBA2 | – | relative to: GBA1 IC50 over GBA2 IC50 | selectivity ratio | 1670
CCCC[C@H](NC(C)=O)C(=O)N[C@@H](CCCC(=O)O)C(=O)N1CCC[C@H]1C(=O)N[C@@H](CC(=O)O)C(=O)COC(=O)c1c(C)cccc1C | CASP3 | enzyme activity, inhibitor | – | – | – | kinact/KI | 98000 M⁻¹ s⁻¹
CC[C@@H]([C@H](C)c1ccc(O)cc1)[C@@H](CC)c1ccc(O)cc1 | ESR1 | reporter gene, luciferase reporter (3xERE) | 293T | 24 h | – | EC50 | 108 nM
CN1CCCNC(=O)c2cccc(c2)C(=O)NCCCN(C)CCCNc2cccc3c2C(=O)c2cccc(c2C3=O)NCCC1 | SAS | RNA-Seq, measured: MANF mRNA | – | 1 µM, 6 h | relative to: untreated cells | log2 fold change | -0.689
COc1ccccc1-c1ccncc1C(=O)Nc1nnc(OCc2ccc(Cl)cc2)s1 | DNA polymerase theta, helicase domain (POLQ, Homo sapiens, UniProt O75417) | ATPase activity, ADP-Glo | – | 0.06 µM, with: ATP 600 µM | – | remaining activity | 43%
Cc1ncsc1-c1ccc(C(C)NC(=O)C2CC(O)CN2C(=O)C(NC(=O)CCCCCCCCCCN2CCCC(Nc3ncc(Cl)c(Nc4ccccc4S(=O)(=O)C(C)C)n3)C2)C(C)(C)C)cc1 (stereo not shown) | 22Rv1 | RNA-seq, measured: ZKSCAN3 mRNA | – | concentration not given | relative to: DMSO | log2 fold change | -1.96

Compound | target or system | test | test system | conditions | scale | endpoint | result
CC(=O)N[C@@H](CC(=O)O)C(=O)N[C@@H](CCCC(=O)O)C(=O)N1[C@H](C(=O)N[C@@H](CC(=O)O)C(=O)COC(=O)c2c(C)cccc2C)C[C@@H]2CCCC[C@@H]21 | CASP3 | enzyme activity, inhibitor | – | – | – | kinact/KI | 1.79e+06 M⁻¹ s⁻¹
N#CN1CC[C@H](C(=O)Nc2nc3c(s2)CN(C(=O)Cn2cc(COCCOCCOCCOCCNC(=O)CCCC[C@@H]4SC[C@@H]5NC(=O)N[C@@H]54)nn2)CC3)C1 | Parkinson disease protein 7 (PARK7, Homo sapiens, UniProt Q99497) | probe binding, affinity probe, neutravidin pull-down LC-MS/MS | HEK293T, cell lysate | 5 µM, 1 h, mean of three replicates, unit not given | higher = more pulled down | iBAQ abundance | 3.35e+09
CC(C)(C(=O)N1CCC(Nc2nc3c(c(=O)[nH]2)CCCC3)CC1)c1ccc(Cl)cc1 | MRGPRD (Homo sapiens, UniProt Q8TDS7, F242A) | miniGq recruitment, agonist, BRET | HEK293T | F242A mutant | – | Hill slope | 0.96
CCCCCCN1C[C@H](O)[C@@H](O)[C@H](O)[C@@H]1CO | GBA2 | inhibitor, 4MU-β-D-glucopyranoside | HEK293T homogenates overexpressing GBA2 | – | relative to: GBA1 IC50 over GBA2 IC50 | selectivity ratio | 7140
Nc1ncc(-c2cc(-c3cnn(CC(F)(F)F)c3)ncc2F)nc1C(=O)NC1CNCC(F)C1 (stereo not shown) | TNK2 | KINOMEscan | – | 1 µM | relative to: DMSO control | remaining binding | 100%
CC(=O)N[C@@H](CCC(C)C)C(=O)N[C@@H](CCC(=O)O)C(=O)N[C@@H](C)C(=O)N[C@@H](CC(=O)O)C(=O)COC(=O)c1c(C)cccc1C | CASP3 | enzyme activity, inhibitor | – | – | – | kinact/KI | 75500 M⁻¹ s⁻¹
Cc1ccc(CSc2nc(N)n(S(=O)(=O)c3ccc4c(c3)CCO4)n2)cc1 | Lysophospholipase-like protein 1 (LYPLAL1, Homo sapiens, UniProt Q5VWZ2) | enzyme activity, activator, gel-based ABPP | purified protein | concentration not given, with: FP-rhodamine | relative to: DMSO | probe labeling increase | 2.4 fold
NC[C@H]1O[C@H](O[C@H]2[C@H](O)[C@@H](O[C@H]3O[C@H](CO)[C@@H](O)[C@H](N)[C@H]3O)[C@H](N)C[C@@H]2N)[C@H](N)C[C@@H]1O | T1, hairpin RNA, designed, closed by two pairs | ITC | – | – | – | Kd | 123 nM
CCCCCCCCCCCCCCCC(=O)N[C@H](CCC(=O)O)C(=O)NCCCC[C@H](NC(=O)[C@H](CCC(N)=O)NC(=O)[C@H](Cc1c[nH]cn1)NC(=O)[C@H](CCCC)NC(=O)[C@H](CC(C)C)NC(=O)[C@H](CCC(N)=O)NC(=O)[C@@H](NC(=O)[C@H](CCC(=O)O)NC(=O)C(C)(C)NC(=O)[C@@H](NC(=O)C1(N)CCCC1)C(C)C)[C@@H](C)CC)C(N)=O | Parathyroid hormone/parathyroid hormone-related peptide receptor (PTH1R, Homo sapiens, UniProt Q03431) | cAMP response, agonist, GloSensor cAMP | GP-2.3 | ligand-on phase | – | Emax | 93.2 ± 5.1%
OC[C@H]1[C@@H](O)[C@H](O)[C@@H](O)CN1CCCCCOCc1ccc(-c2ccccc2)c(C(F)(F)F)c1 | GBA2 | inhibitor, 4MU-β-D-glucopyranoside | HEK293T homogenates overexpressing GBA2 | – | relative to: GCS IC50 over GBA2 IC50 | selectivity ratio | 30
C[C@@H](Nc1nc(N[C@H](C)C(F)(F)F)nc(-c2cccc(Cl)n2)n1)C(F)(F)F | Isocitrate dehydrogenase [NADP] cytoplasmic (IDH1, Homo sapiens, UniProt O75874, R132H) | 2-HG production, inhibitor | BT142 neurospheres | – | – | maximal inhibition | 88%
OC[C@@H]1[C@@H](O)[C@H](O)[C@@H](O)CN1CC(F)(F)CCCOCc1ccc(-c2ccccc2)cc1 | GBA2 | inhibitor, 4MU-β-D-glucopyranoside | HEK293T homogenates overexpressing GBA2 | – | relative to: GBA1 IC50 over GBA2 IC50 | selectivity ratio | 13
Fc1ccc(Nc2nc(NC3CCCCC3)c3ccccc3n2)cc1F | Beta-2 adrenergic receptor (ADRB2, Homo sapiens, UniProt P07550, T164V) | β-arrestin2 recruitment, antagonist, BRET | – | mutant T164V | relative to: isoprenaline maximal response | maximal inhibition | -12.2%
C=CC(=O)Nc1cccc(Cn2ncc3cnc(Nc4cnn(CCOC)c4)nc32)c1 | WNK4 human | binding, KINOMEscan | – | 100 nM | lower = stronger binding | percent of control | 91%
Cc1cccc(-c2ccc(COCCCCCN3C[C@H](O)[C@@H](O)[C@H](O)[C@H]3CO)cc2)c1 | GBA2 | inhibitor, 4MU-β-D-glucopyranoside | HEK293T homogenates overexpressing GBA2 | – | relative to: GBA1 IC50 over GBA2 IC50 | selectivity ratio | 125
COC1CN([C@H]2CC[C@H]([C@@]3(C)Oc4c(Cl)cc(C(=O)NCc5c(SC)cc(C)[nH]c5=O)c(C)c4O3)CC2)C1 | – | RNA-seq, measured: SHANK3 mouse homolog | mouse, HT-1376 xenograft, whole blood | dose not given | relative to: vehicle | log2 fold change | 0.592
O=C1C2CC3CC1CC(C(=O)N1CCN(c4ccc([N+](=O)[O-])c5ncccc45)CC1)(C3)C2 | Salmonella typhimurium | Ames test | TA1535 | 0.78 µg/well, with S9 | relative to: vehicle | revertant fold increase | 1.6
CC(C)=CCC/C(C)=C/CC/C(C)=C/COCCCCCN1C[C@H](O)[C@@H](O)[C@H](O)[C@H]1CO | GBA2 | inhibitor, 4MU-β-D-glucopyranoside | HEK293T homogenates overexpressing GBA2 | – | relative to: GCS IC50 over GBA2 IC50 | selectivity ratio | 125
C[C@@H]1Cc2c([nH]c3ccccc23)[C@@H](c2c(F)cc(/C=C/C(=O)O)cc2F)N1C12CC(C1)C2 | ESR1 | immunohistochemistry | human patients, tumour biopsy | 25 to 300 mg, day 21, paired biopsies, average | direction not given | H-score | 221
Cc1nn(-c2cccc(N)c2)c(=O)c2cnc(Nc3ccc(N4CCNCC4)cc3)nc12 | SRSF protein kinase 1 (SRPK1, Homo sapiens, UniProt Q96SB4) | enzyme activity, inhibitor | – | – | – | IC50 | > 10000 nM

Some of these lines once more:
Compound | target or system | test | test system | conditions | scale | endpoint | result
COC1CN([C@H]2CC[C@H]([C@@]3(C)Oc4c(Cl)cc(C(=O)NCc5c(SC)cc(C)[nH]c5=O)c(C)c4O3)CC2)C1 | – | RNA-seq, measured: SHANK3 mouse homolog | mouse, HT-1376 xenograft, whole blood | dose not given | relative to: vehicle | log2 fold change | 0.592
O=C1C2CC3CC1CC(C(=O)N1CCN(c4ccc([N+](=O)[O-])c5ncccc45)CC1)(C3)C2 | Salmonella typhimurium | Ames test | TA1535 | 0.78 µg/well, with S9 | relative to: vehicle | revertant fold increase | 1.6
CC(C)=CCC/C(C)=C/CC/C(C)=C/COCCCCCN1C[C@H](O)[C@@H](O)[C@H](O)[C@H]1CO | GBA2 | inhibitor, 4MU-β-D-glucopyranoside | HEK293T homogenates overexpressing GBA2 | – | relative to: GCS IC50 over GBA2 IC50 | selectivity ratio | 125
